Results from different studies.
Parts stem from different laboratories: compare values within a part only.

Block 1 — technique: competition protein-binding microarray; form: double-stranded DNA, one strand shown; sample: in vitro; tested at: 2 µM; with: Pho4 competitor, 0.05 µM; direction: higher = stronger binding
Target: Centromere-binding protein 1, full length, His-tagged (CBF1, Saccharomyces cerevisiae, UniProt P17106, residues 1-351)
Chain of UniProt P17106 (whole entry, looked up): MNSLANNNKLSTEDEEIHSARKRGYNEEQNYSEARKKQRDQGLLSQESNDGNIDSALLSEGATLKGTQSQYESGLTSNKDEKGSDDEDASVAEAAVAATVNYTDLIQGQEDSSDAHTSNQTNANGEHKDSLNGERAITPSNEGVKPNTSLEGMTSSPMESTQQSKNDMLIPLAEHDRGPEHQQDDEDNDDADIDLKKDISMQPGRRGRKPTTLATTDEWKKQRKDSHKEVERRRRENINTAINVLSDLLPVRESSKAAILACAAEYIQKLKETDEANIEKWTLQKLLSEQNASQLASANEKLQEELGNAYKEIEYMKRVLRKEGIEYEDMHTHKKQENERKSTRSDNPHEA
Setting: whole 60-bp probe, lowest competitor level
Strand	fluorescence intensity
TTAATCAATGATTTACCCGTGGGACCCAAGTCCAGTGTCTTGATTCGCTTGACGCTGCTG	67.3 a.u.
GTTATTAAACTCCGTCACAGTAAGGCATACCCCATTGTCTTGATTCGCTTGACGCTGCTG	63.8 a.u.
CTTTCCGTTTGCGGACTCGTGCAAAAGCTTACCTTCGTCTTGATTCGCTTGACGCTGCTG	105 a.u.
CTTTCCCGATCTTTTCACGTGATTTTAGCACATTTGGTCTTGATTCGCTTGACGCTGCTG	3210 a.u.
GTATCCGCACCGCAGTTCGTGACAAGTGCCTGCGTTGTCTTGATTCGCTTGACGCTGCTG	65.6 a.u.

Block 2 — technique: RNA Bind-n-Seq; form: RNA; sample: in vitro; tested at: 1 µM; setting: whole 134-nt RNA, ends assumed; with: 150 mM KCl; relative to: input library; direction: higher = stronger binding
Target: Ras GTPase-activating protein-binding protein 1, C-terminal RGG region (G3BP1, Homo sapiens, UniProt Q13283)
Chain of UniProt Q13283 (whole entry, looked up): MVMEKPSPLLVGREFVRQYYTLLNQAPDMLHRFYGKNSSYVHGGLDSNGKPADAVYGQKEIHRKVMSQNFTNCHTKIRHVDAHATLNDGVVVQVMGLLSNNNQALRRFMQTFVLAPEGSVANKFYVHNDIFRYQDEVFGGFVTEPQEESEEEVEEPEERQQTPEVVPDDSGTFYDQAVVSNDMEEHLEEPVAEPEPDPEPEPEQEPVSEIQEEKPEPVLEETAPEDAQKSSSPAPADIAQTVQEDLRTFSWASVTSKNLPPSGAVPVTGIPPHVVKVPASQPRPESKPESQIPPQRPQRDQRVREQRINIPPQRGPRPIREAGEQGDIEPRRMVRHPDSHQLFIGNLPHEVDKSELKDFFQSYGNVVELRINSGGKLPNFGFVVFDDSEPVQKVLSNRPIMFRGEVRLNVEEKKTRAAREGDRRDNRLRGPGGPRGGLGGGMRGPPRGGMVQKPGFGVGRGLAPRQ
Strand	log2 enrichment
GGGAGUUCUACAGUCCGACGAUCUUCCCAAGAUGGCGGCGGACGUGUCCGUUACUCACCGGCCCCCGCUGAGCCCUAAGUCUGGGGCCGAAGUCGAAGCCGGCGAUGCCGCGGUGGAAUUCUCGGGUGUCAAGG	-2.72
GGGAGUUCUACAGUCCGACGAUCUGCCCCUGGUGGCAUGCGGGGAGGAAGAGGUGGCCUCAUGGAUCGUGGUGGUCCCGGUGGAAUGUUCAGAGGUGGCCGUGGUGGAGACAGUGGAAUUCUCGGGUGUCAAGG	2.01
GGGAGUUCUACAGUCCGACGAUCGCAGGAAGUAAAAACAAAUGGAAAUGCUUCGGAUAGUGGCAGGGGUGGGGGUUGCUAAGGUAAGGGUGGGAUGGGAGUGGGUAAAGAGUUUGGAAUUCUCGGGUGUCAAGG	2.03
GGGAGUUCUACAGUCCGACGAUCUUGAGAAAAGCACCCAUAAUUUGCUACUUGAGGAUUUUAUUCCCUGGAUUCUCUGGAUGCUCAUUGCAUGAAAAGUGGAAAAGUUUAGAUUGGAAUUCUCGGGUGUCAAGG	-0.979
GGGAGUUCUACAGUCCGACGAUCAGUCCUGUGCUACACAUCGUAUGUACCGAAUCAAAUUUUUAAAUUUUUAAAUUUAAAAAAGUAUUAUGUUACGCCGUUCGGAUCUGCACUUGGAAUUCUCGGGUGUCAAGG	-2.77

Block 3 — technique: protein binding microarray; form: double-stranded DNA, one strand shown; sample: in vitro; tested at: not given; relative to: not given; direction: higher = stronger binding
Target: Histone acetyltransferase KAT6A, both winged helices, GST fusion (KAT6A, Homo sapiens, UniProt Q92794, residues 1-181)
Setting: 8-mer, flanks averaged, mean of 2 arrays, mostly near background
Construct (chain): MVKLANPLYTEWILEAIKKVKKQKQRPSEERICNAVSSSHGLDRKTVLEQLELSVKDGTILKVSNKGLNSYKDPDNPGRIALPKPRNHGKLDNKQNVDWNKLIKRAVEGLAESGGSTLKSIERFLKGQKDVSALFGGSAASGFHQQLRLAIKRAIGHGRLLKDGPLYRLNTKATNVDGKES
Strand	E-score
AGTCCTGG	-0.257
AGTGAGTC	-0.113
CCGGCCCG	0.336
GGGTGCTA	-0.105
AGTGGTAC	-0.141
CATCAATC	-0.0241

Mixed results
Substance	target	assay	system	conditions	how to read	measurement	value
PhoQ, residues 284 288 289 292 302 303 SSYNSA	PhoP, residues 12 14 15 18 19 LHHVQ (Escherichia coli, UniProt P23836)	Sort-seq, refers to: YFP reporter	E. coli	PhoQ-PhoP variant library, with: 10 µM Mg2+	relative to: high Mg2+ state, higher = stronger signaling	fold induction	17.7
